Measurements collected from several papers.
A part holds a random share of what one study measured.

Sample 1
SMILES: CC(=O)N[C@@H](Cc1c[nH]c2ccccc12)C(=O)N[C@@H](CCC(=O)C=[N+]=[N-])C(=O)OC(C)C
Concentration: 5 µM
Endpoint: remaining compound
sample = mouse EL4 tumour homogenate; time = 0 h; with = bestatin 10 µM; value = 100%
host = mouse; sample = EL4 tumour homogenate; time = 0.05 h; with = leupeptin 100 µM; value = 0.151%
sample = mouse intestinal homogenate; time = 0.05 h; with = protease inhibitor cocktail; value = 90%
sample = mouse intestinal homogenate; time = 1 h; with = leupeptin 100 µM; value = 8.44%
sample = EL4 tumour homogenate, mouse; time = 1 h; with = leupeptin 100 µM; value = 0.095%

Sample 2
Cell line: mouse MPNST tumor cells
Method: high-content immunofluorescence imaging
Refers to: nuclear SOX9
Concentration: 10 µM
Time: 12 h
Notes: mean of 2 replicates
Reference: DMSO control
Direction: higher = more nuclear SOX9
Endpoint: nuclear SOX9 intensity
Compound = CC(C)c1cc(-c2ccc(F)c3ccccc23)nc(N)n1; value = 112 % of DMSO
Compound = Cc1ncc([N+](=O)[O-])n1CC(C)O (stereo not drawn); value = 99.5 % of DMSO
Compound = O=c1c(-c2ccc(O)cc2)coc2cc(O)cc(O)c12; value = 116 % of DMSO
Compound = C#CC1(O)CCC2C3CCc4cc(OC)ccc4C3CCC21C (stereo not drawn); value = 104 % of DMSO

Sample 3
Target: Mitogen-activated protein kinase kinase kinase kinase 5 (MAP4K5, Homo sapiens, UniProt Q9Y4K4)
Chain of UniProt Q9Y4K4 (whole entry, looked up): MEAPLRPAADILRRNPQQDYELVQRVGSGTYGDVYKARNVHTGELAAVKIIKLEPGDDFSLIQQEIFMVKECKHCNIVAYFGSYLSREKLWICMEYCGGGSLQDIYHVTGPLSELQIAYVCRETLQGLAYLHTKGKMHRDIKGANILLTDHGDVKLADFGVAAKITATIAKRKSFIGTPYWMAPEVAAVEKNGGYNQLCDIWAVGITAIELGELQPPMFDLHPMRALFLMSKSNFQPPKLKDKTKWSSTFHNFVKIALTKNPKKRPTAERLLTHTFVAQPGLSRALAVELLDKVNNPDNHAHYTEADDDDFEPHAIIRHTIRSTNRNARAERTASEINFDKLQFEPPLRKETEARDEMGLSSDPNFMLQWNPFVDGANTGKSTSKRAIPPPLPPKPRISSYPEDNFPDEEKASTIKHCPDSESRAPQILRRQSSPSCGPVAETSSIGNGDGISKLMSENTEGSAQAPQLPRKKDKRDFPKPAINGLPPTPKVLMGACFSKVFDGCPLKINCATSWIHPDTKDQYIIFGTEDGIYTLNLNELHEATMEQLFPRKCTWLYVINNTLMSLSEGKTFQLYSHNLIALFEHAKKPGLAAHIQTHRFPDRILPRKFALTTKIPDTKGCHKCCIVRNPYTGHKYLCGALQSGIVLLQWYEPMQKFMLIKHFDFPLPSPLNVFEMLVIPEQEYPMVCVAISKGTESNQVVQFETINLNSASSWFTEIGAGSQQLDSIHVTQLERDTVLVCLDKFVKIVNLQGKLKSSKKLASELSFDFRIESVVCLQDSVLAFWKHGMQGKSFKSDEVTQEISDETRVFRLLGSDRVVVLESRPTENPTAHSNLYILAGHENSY
Effect on: enzyme activity
Mode: inhibitor
Concentration: 0.5 µM
Reference: control
Endpoint: remaining activity
SMILES = Cn1cnc2cc3c(Nc4cccc(Br)c4)ncnc3cc21; value = 56.1%
SMILES = COc1cc2ncc(-c3ccccc3)nc2cc1OC; value = 99.8%
SMILES = O=C1NC(=O)/C(=C/c2ccc3nccnc3c2)S1; value = 85.4%
SMILES = O=C(Nc1ccc(Cl)cc1)c1ccccc1NCc1ccncc1; value = 95.8%
SMILES = Nc1[nH]nc2nnc(-c3c(-c4ccccc4)nn4ccccc34)cc12; value = 50.3%
SMILES = C[S+]([O-])c1ccc(-c2nc(-c3ccncc3)c(-c3ccc(F)cc3)[nH]2)cc1 (stereo not drawn); value = 99.5%
SMILES = COc1ccc(Cl)cc1NC(=O)Nc1cc(C)nc2ccccc12; value = 100%
SMILES = CC(=O)O/N=C1/C(c2c(O)[nH]c3cc(Br)ccc23)=Nc2ccccc21; value = 24.1%
SMILES = CS(=O)(=O)CCNCc1ccc(-c2ccc3ncnc(Nc4ccc(OCc5cccc(F)c5)c(Cl)c4)c3c2)o1; value = 109%
SMILES = O=c1cc(N2CCOCC2)oc2c1ccc1ccccc12; value = 103%
SMILES = CC(C)[C@H](CO)Nc1nc(Nc2cccc(Cl)c2)c2ncn(C(C)C)c2n1; value = 97.5%
SMILES = CCOc1cc2ncnc(Nc3cccc(Br)c3)c2cc1OCC; value = 47.7%
SMILES = Cc1ccc(NC(=O)c2ccc(CN3CCN(C)CC3)cc2)cc1Nc1nccc(-c2cccnc2)n1; value = 102%
SMILES = COc1cc2ncnc(N3CCN(C(=O)Nc4ccc(Oc5ccccc5)cc4)CC3)c2cc1OC; value = 81.6%
SMILES = COc1ccc(-c2cnc3c(-c4ccsc4)cnn3c2)cc1; value = 60.3%
SMILES = CN(C)CCCn1cc(C2=C(c3c[nH]c4ccccc34)C(=O)NC2=O)c2ccccc21; value = 68.5%
SMILES = CCN1/C(=C/C(C)=O)Sc2ccc(OC)cc21; value = 92.3%
SMILES = CC(C)c1nn(-c2c(Cl)cccc2Cl)c2nc(Cc3ccc(OCCO)cc3)[nH]c(=O)c12; value = 89.9%
SMILES = Cc1nc(Nc2ncc(C(=O)Nc3c(C)cccc3Cl)s2)cc(N2CCN(CCO)CC2)n1; value = 3.07%
SMILES = Cn1cc(/C=C2\C(=O)Nc3ccc(S(N)(=O)=O)cc32)c2ccccc21; value = 13.4%
SMILES = COc1cc2ncnc(Nc3ccc(OCc4ccccc4)cc3)c2cc1OC; value = 65.4%
SMILES = CCC(=O)Nc1ccc2ncnc(Nc3cccc(Br)c3)c2c1; value = 89%

Sample 4
Cell line: colorectal tumour organoids
Concentration: 1 µM
Reference: DMSO
Endpoint: viability
Structure (SMILES) = COc1cc(Nc2ccnc3ccc(Br)cc23)cc(OC)c1OC; value = 67.9%
Structure (SMILES) = Cn1cc(-c2ccc3occ(-c4ccccc4-c4ccccc4)c3n2)cn1; value = 119%
Structure (SMILES) = CC(C)C(=O)Nc1n[nH]c2cc(-c3cccc(NS(=O)(=O)C4CC4)c3)ccc12; value = 107%
Structure (SMILES) = CCN(CC)S(=O)(=O)Nc1cccc(-c2ccc3c(NC(=O)C4CC4)n[nH]c3c2)c1; value = 84.8%
Structure (SMILES) = O=C(O)c1ccc(-c2coc3ncc(-c4ccccc4)cc23)cc1Cl; value = 109%

Sample 5
Cell line: A-375
Concentration: 100 µM
Time: 18 h
Endpoint: viability
SMILES = c1ccc(C2CN3CCSC3=N2)cc1 (stereo not drawn); value = 66.1%
SMILES = Cn1c(=O)cc(N2CCC[C@@H](N)C2)n(Cc2ccccc2C#N)c1=O; value = 94.1%
SMILES = CN1[C@@H]2CCC[C@H]1C[C@@H](NC(=O)c1nn(C)c3ccccc13)C2; value = 92%
SMILES = N#CCC(C1CCCC1)n1cc(-c2ncnc3[nH]ccc23)cn1 (stereo not drawn); value = 76.4%
SMILES = CC(C)[C@@H]1CC[C@@H](C)C[C@H]1O; value = 108%
SMILES = CCOc1nc2cccc(C(=O)O)c2n1Cc1ccc(-c2ccccc2-c2nnn[nH]2)cc1; value = 102%
SMILES = Nc1cc(F)ccc1NC(=O)c1ccc(CNC(=O)/C=C/c2cccnc2)cc1; value = 56.6%
SMILES = COc1ccc(-c2cc(=O)c3c(O)cc(O[C@@H]4O[C@H](CO[C@@H]5O[C@@H](C)[C@H](O)[C@@H](O)[C@H]5O)[C@@H](O)[C@H](O)[C@H]4O)cc3o2)cc1O; value = 85.6%
SMILES = C[C@H]1[C@H](NC(=O)/C(=N\OC(C)(C)C(=O)O)c2csc(N)n2)C(=O)N1S(=O)(=O)O; value = 100%

For quick reference, copied from above (sample 3):
SMILES = COc1cc2ncnc(Nc3ccc(OCc4ccccc4)cc3)c2cc1OC; value = 65.4%
SMILES = Cn1cc(/C=C2\C(=O)Nc3ccc(S(N)(=O)=O)cc32)c2ccccc21; value = 13.4%
SMILES = Cc1ccc(NC(=O)c2ccc(CN3CCN(C)CC3)cc2)cc1Nc1nccc(-c2cccnc2)n1; value = 102%
